Published values from different studies.
Each line is one published result; not all experiments were run side by side. Several values in a cell are separate wells, animals, samples, runs or records.

For `COc1cc(CCC[P+](c2ccccc2)(c2ccccc2)c2ccccc2)c(OC)c2c1OCO2.[I-]`, the TGI was -4.83 log M (T47D; SRB).
The CC50 of `Cn1cncc1C1=CN(c2ncnc3[nH]cnc23)CCS1` is reported as > 200 µM (T47D).
`CN1CCN(C2(CNC3CCN(c4cccc(-c5cc6cc(F)ccc6[nH]5)c4)CC3)CCC2)CC1` has a GI50 of 1940 nM (T47D).
`COP(=O)(CCC(N)C(=O)O)Oc1cccc(CC(=O)O)c1` (centres unmarked) has a maximum inhibition of 16.5% (human coronavirus OC43; virus-induced cell killing; MRC-5; screen).
`CCn1cc(-c2cc(Cn3ccnc3)cc3c2CCN([C@H](c2cc(OC)ccn2)C2CC2)C3=O)c(C(F)(F)F)n1` gave an EC50 of > 30 µM (T47D; cell growth, inhibitor; 120 h).
`C[C@]12CC[C@H](O)C[C@H]1CC[C@@H]1[C@@H]2CC[C@]2(C)[C@@H](c3ccc(=O)oc3)CC[C@]12O` — result for “control reporter activity”: 0.53 and 0.959 and 0.637 (T47D; luciferase; 10 nM, reporter without ERE, unit not given; baseline: untreated).
With `CC(C)N1CCC(NC2CCN(c3cccc(-c4cc5cc(F)ccc5[nH]4)c3)CC2)CC1` the GI50 was 1670 nM (T47D).
The TGI of `COc1c(CCC[P+](c2ccccc2)(c2ccccc2)c2ccccc2)cc2c(c1OC)OCO2.[I-]` is reported as -4.45 log M (T47D; SRB).
`COc1cnc2cccc(N3CCc4c(cc(Cn5ccnc5C)cc4-c4cn(C)nc4C(F)(F)F)C3=O)c2c1` gave an EC50 of 3.52 µM (T47D; cell growth, inhibitor; 120 h).
With `CN(C)CCOc1ccc(/C(=C(/CCCl)c2ccccc2)c2ccccc2)cc1` the maximum inhibition was 35.2% (human coronavirus OC43; virus-induced cell killing; MRC-5; screen).
The CC50 of `CCN(CC)c1ccc(C=NNC(=O)CSc2nc3ccccc3c(=O)n2Cc2ccc(S(N)(=O)=O)cc2)c(O)c1` is reported as > 100 µM (T47D; NCI five-dose screen).

For quick reference, copied from above:
The CC50 of `Cn1cncc1C1=CN(c2ncnc3[nH]cnc23)CCS1` is reported as > 200 µM (T47D).
